Measurements gathered from unrelated publications.
Compare with care: the assays were run in different laboratories. ± marks the error that the study gave.
SH2B3 SH2 domain: SH2B3, SH2 domain (Homo sapiens, UniProt Q9UQQ2)

CC[C@H](C)[C@@H]1NC(=O)[C@H](Cc2c[nH]c3ccccc23)NC(=O)[C@H](Cc2ccc(O)cc2)NC(=O)CSC[C@@H](C(N)=O)NC(=O)[C@H]([C@@H](C)O)NC(=O)[C@H](CO)NC(=O)[C@H](C(C)C)NC(=O)[C@H](Cc2ccc(O)cc2)NC(=O)[C@H](CCCNC(=N)N)NC(=O)[C@H](Cc2ccc(O)cc2)NC(=O)[C@H]([C@@H](C)O)NC(=O)[C@H]([C@@H](C)O)NC(=O)[C@H](Cc2c[nH]c3ccccc23)NC(=O)[C@H](CO)NC(=O)[C@H](CC(N)=O)NC(=O)[C@H](CO)NC1=O — Kd (Retromer complex (Thermochaetoides thermophila, UniProt G0S0E6+G0S709); binding, ITC; 25 °C, retromer, Chaetomium thermophilum): 5030 ± 900 nM
CCCc1ccc(O)c(-c2cc(CCC)ccc2O)c1 — Kd (E3 ubiquitin-protein ligase TRIM38 (TRIM38, Homo sapiens, UniProt O00635)): 30500 nM
Cc1cn([C@H]2C[C@H](O)[C@@H](COP(=O)(O)OP(=O)(O)OP(=O)(O)O)O2)c(=O)[nH]c1=O — Kd (DNA polymerase I, Klenow fragment (polA, Escherichia coli, UniProt P00582, C907S/D424A/L744C); nucleotide incorporation, substrate, single-turnover rapid quench; with: radiolabelled primer-template DNA): 17000 ± 1000 nM
Fc1ccc([C@@H]2CCNC[C@H]2COc2ccc3c(c2)OCO3)cc1 — Kd (snf (Aquifex aeolicus, UniProt O67854, G24D/I359G/N21Y/S256G/T254S/Y265F); saturation binding): 2410 ± 106 nM
CN(CC(=O)O)C(=N)NP(=O)(O)O — Kd (CKMT1A (Homo sapiens, UniProt P12532, H99K); microscale thermophoresis; pH 7.0, H61K mutant, no substrate): 213000 ± 77000 nM
CC(C)(C)C(O)C(Oc1ccc(-c2ccccc2)cc1)n1cncn1 (stereo not shown) — Kd (Glideosome-associated protein 50 (GAP50, Plasmodium falciparum, UniProt Q8I2X3); binding, surface plasmon resonance; 1:1 binding model): 330 nM
CC(C)[C@H](N)C(=O)O — Kd (livJ (Escherichia coli, UniProt P0AD96, Q172C); fluorescence titration): 1100 nM
CSCC[C@H](NC(=O)[C@H](CC(C)C)NC(=O)[C@H](C)NC(=O)[C@H](CCCNC(=N)N)NC(=O)[C@H](Cc1ccc(OP(=O)(O)O)cc1)NC(=O)[C@H](Cc1ccccc1)NC(=O)[C@H](CC(N)=O)NC(=O)[C@H](CO)NC(=O)[C@H](CC(=O)O)NC(=O)[C@@H](NC(=O)[C@@H]1CCCN1C(=O)[C@H](CO)NC(=O)[C@@H]1CCCN1C(=O)[C@H](CC(C)C)NC(=O)c1ccc2c(c1)C(=O)OC21c2ccc(N(C)C)cc2Oc2cc(N(C)C)ccc21)[C@@H](C)O)C(=O)N[C@@H](CC(=O)O)C(=O)N[C@@H](CCC(=O)O)C(=O)N[C@@H](CCC(=O)O)C(=O)N[C@@H](CC(=O)O)C(=O)O — Kd (SH2B3 SH2 domain; binding): 1360 nM
N[C@@H](Cc1c[nH]c2ccccc12)C(=O)O — Kd (Transcription attenuation protein MtrB, Δ71 truncation (mtrB, Geobacillus stearothermophilus, UniProt Q9X6J6); native mass spectrometry titration): 3120 nM
CC[C@@]1(O)C[C@H](O[C@H]2C[C@H](N(C)C)[C@H](O[C@H]3C[C@H](O)[C@H](O[C@H]4CCC(=O)[C@H](C)O4)[C@H](C)O3)[C@H](C)O2)c2c(cc3c(c2O)C(=O)c2c(O)cccc2C3=O)[C@H]1C(=O)OC — Kd (Cytochrome P450 2J2 (CYP2J2, Homo sapiens, UniProt P51589); 2 min, pH 7.4): 2440 ± 240 nM
CSCC[C@H](NC(=O)[C@H](CC(=O)O)NC(=O)c1ccc2c(c1)C(=O)OC21c2ccc(N(C)C)cc2Oc2cc(N(C)C)ccc21)C(=O)N[C@@H](CO)C(=O)N[C@@H](CCCCN)C(=O)N[C@@H](CC(=O)O)C(=O)N[C@@H](CCC(=O)O)C(=O)N[C@@H](CO)C(=O)N[C@H](C(=O)N[C@@H](CC(=O)O)C(=O)N[C@@H](Cc1ccc(OP(=O)(O)O)cc1)C(=O)N[C@H](C(=O)N1CCC[C@H]1C(=O)N[C@@H](CCSC)C(=O)N[C@@H](CC(C)C)C(=O)N[C@@H](CC(=O)O)C(=O)N[C@@H](CCSC)C(=O)N[C@@H](CCCCN)C(=O)N[C@@H](CC(=O)O)C(=O)O)C(C)C)C(C)C — Kd (SH2B3 SH2 domain; binding): 543 nM
O=C(O)[C@H]1O[C@@H](Oc2c(-c3ccc(O)c(O)c3)oc3cc(O)cc(O)c3c2=O)[C@H](O)[C@@H](O)[C@@H]1O — Kd (RPSA (Homo sapiens, UniProt P08865); binding): 252 ± 9 nM
CC[C@H](C)[C@H](NC(=O)[C@H](CCCNC(=N)N)NC(=O)CNC(=O)[C@H](Cc1c[nH]c2ccccc12)NC(=O)[C@@H]1CSC[C@@H](NC(=O)[C@H](Cc2ccc(O)cc2)NC(=O)[C@H](Cc2c[nH]c3ccccc23)NC(=O)[C@H](CC(C)C)NC(=O)CNC(=O)[C@H](CCCNC(=N)N)NC(=O)c2ccc3c(c2)C(=O)OC32c3ccc(O)cc3Oc3cc(O)ccc32)C(=O)N[C@@H](CC(C)C)C(=O)N[C@@H](CO)C(=O)N1)C(=O)NCC(=O)N[C@@H](CCCNC(=N)N)C(=O)N[C@@H](CCCNC(=N)N)C(=O)NCCCOCCOCCOCCCNC(=O)CCC(=O)NCCCOCCOCCOCCCNC(=O)CCC(=O)NCCCOCCOCCOCCCNC(=O)CCC(=O)N[C@@H](C)C(=O)O — Kd (Sortase B (srtB, Staphylococcus aureus, UniProt Q2FZE3); binding, fluorescence polarization; pH 7.5): > 300000 nM
CC(C)C[C@H](NC(=O)[C@@H](NC(=O)[C@H](CO)NC(=O)[C@H](CO)NC(=O)[C@@H](NC(=O)[C@H](CC(=O)O)NC(=O)[C@H](CC(C)C)NC(=O)[C@@H]1CCCN1C(=O)[C@H](CO)NC(=O)c1ccc2c(c1)C(=O)OC21c2ccc(N(C)C)cc2Oc2cc(N(C)C)ccc21)[C@@H](C)O)C(C)C)C(=O)N[C@@H](Cc1ccc(OP(=O)(O)O)cc1)C(=O)N[C@H](C(=O)N[C@@H](C)C(=O)N[C@H](C(=O)N[C@@H](CCC(N)=O)C(=O)N1CCC[C@H]1C(=O)N[C@@H](CC(N)=O)C(=O)N[C@@H](CCC(=O)O)C(=O)N[C@@H](CC(=O)O)C(=O)O)C(C)C)[C@@H](C)O — Kd (SH2 domain-containing adapter protein B, SH2 domain (SHB, Homo sapiens, UniProt Q15464); binding): 577 nM
O=S(=O)(F)Cc1ccccc1 — Kd (Nuclear receptor subfamily 2 group C member 2, ligand-binding domain (Homo sapiens, UniProt P49116); SPR imaging): 0.0897 nM
CSCC[C@H](NC(=O)CNC(=O)[C@H](Cc1ccccc1)NC(=O)[C@H](CC(=O)O)NC(=O)CNC(=O)c1ccc2c(c1)C(=O)OC21c2ccc(N(C)C)cc2Oc2cc(N(C)C)ccc21)C(=O)N[C@@H](CO)C(=O)N[C@@H](CCCNC(=N)N)C(=O)N[C@@H](CC(=O)O)C(=O)N[C@H](C(=O)N[C@@H](Cc1ccc(OP(=O)(O)O)cc1)C(=O)N[C@@H](CO)C(=O)N[C@H](C(=O)N[C@@H](CC(=O)O)C(=O)N[C@@H](Cc1ccc(O)cc1)C(=O)N[C@@H](Cc1ccc(O)cc1)C(=O)N[C@@H](CCCNC(=N)N)C(=O)N[C@H](C(=O)N[C@@H](CC(=O)O)C(=O)O)C(C)C)[C@@H](C)O)C(C)C — Kd (Tyrosine-protein phosphatase non-receptor type 11, SH2 domains (PTPN11, Homo sapiens, UniProt Q06124); binding): 550 nM
CC(C)C[C@H](NC(=O)[C@H](CCC(N)=O)NC(=O)[C@H](CC(C)C)NC(=O)[C@H](CC(C)C)NC(=O)[C@H](CO)NC(=O)[C@H](Cc1c[nH]cn1)NC(=O)[C@H](CC(C)C)NC(=O)[C@H](CC(=O)O)NC(=O)[C@H](CO)NC(=O)[C@H](CCC(=O)O)NC(=O)[C@H](Cc1ccccc1)NC(=O)[C@H](C)NC(=O)[C@H](Cc1ccccc1)NC(=O)[C@H](CCC(N)=O)NC(=O)[C@H](C)N)C(=O)N[C@@H](CCCCN)C(=O)N[C@@H](CCCCN)C(=O)N[C@@H](CCCCN)C(=O)N[C@@H](CCCCNC(=O)CCCCCNC(=S)Nc1ccc2c(c1)C(=O)OC21c2ccc(O)cc2Oc2cc(O)ccc21)C(N)=O — Kd (E3 ubiquitin-protein ligase XIAP, BIR1 domain (XIAP, Homo sapiens, UniProt P98170); fluorescence polarization; 30 min, pH 7.5, with: 20 nM FITC-labeled peptide): no binding
CC[C@H](C)[C@H](NC(=O)[C@H](Cc1ccc(OP(=O)(O)O)cc1)NC(=O)[C@H](CCC(=O)O)NC(=O)[C@@H]1CCCN1C(=O)[C@@H](NC(=O)[C@@H]1CCCN1C(=O)[C@H](CC(C)C)NC(=O)[C@H](Cc1ccccc1)NC(=O)[C@@H](NC(=O)[C@H](CC(=O)O)NC(=O)[C@H](CC(=O)O)NC(=O)c1ccc2c(c1)C(=O)OC21c2ccc(N(C)C)cc2Oc2cc(N(C)C)ccc21)[C@@H](C)O)C(C)C)C(=O)N[C@@H](CC(N)=O)C(=O)N[C@@H](CCC(N)=O)C(=O)N[C@@H](CO)C(=O)N[C@H](C(=O)N1CCC[C@H]1C(=O)N[C@@H](CCCCN)C(=O)N[C@@H](CC(=O)O)C(=O)O)C(C)C — Kd (Growth factor receptor-bound protein 7, SH2 domain (GRB7, Homo sapiens, UniProt Q14451); binding): 1980 nM
Oc1ccc(/C=C/c2cc(O)cc(O)c2)cc1 — Kd (O-methyltransferase (Sorghum bicolor, UniProt A0A1B6PFV1, W279A); isothermal titration calorimetry; SFG-saturating): 27600 nM

For quick reference, copied from above:
CC[C@H](C)[C@H](NC(=O)[C@H](CCCNC(=N)N)NC(=O)CNC(=O)[C@H](Cc1c[nH]c2ccccc12)NC(=O)[C@@H]1CSC[C@@H](NC(=O)[C@H](Cc2ccc(O)cc2)NC(=O)[C@H](Cc2c[nH]c3ccccc23)NC(=O)[C@H](CC(C)C)NC(=O)CNC(=O)[C@H](CCCNC(=N)N)NC(=O)c2ccc3c(c2)C(=O)OC32c3ccc(O)cc3Oc3cc(O)ccc32)C(=O)N[C@@H](CC(C)C)C(=O)N[C@@H](CO)C(=O)N1)C(=O)NCC(=O)N[C@@H](CCCNC(=N)N)C(=O)N[C@@H](CCCNC(=N)N)C(=O)NCCCOCCOCCOCCCNC(=O)CCC(=O)NCCCOCCOCCOCCCNC(=O)CCC(=O)NCCCOCCOCCOCCCNC(=O)CCC(=O)N[C@@H](C)C(=O)O — Kd (Sortase B (srtB, Staphylococcus aureus, UniProt Q2FZE3); binding, fluorescence polarization; pH 7.5): > 300000 nM
Oc1ccc(/C=C/c2cc(O)cc(O)c2)cc1 — Kd (O-methyltransferase (Sorghum bicolor, UniProt A0A1B6PFV1, W279A); isothermal titration calorimetry; SFG-saturating): 27600 nM
